Measured values of several laboratories.
Lines come from different studies, so protocols differ. Values joined by “and” are separate records of one study, mostly repeats; a detail may differ.
MAPK8: Mitogen-activated protein kinase 8 (MAPK8, Homo sapiens, UniProt P45983)

| Structure (SMILES) | target or system | test | system | setting | how to read | quantity | result |
| --- | --- | --- | --- | --- | --- | --- | --- |
| CCC1(CC)C(=O)N(c2cc(O[Si](C)(C)C(C)(C)C)cc(C(=O)N3CCN(Cc4ccc(Br)cc4)CC3)c2)C1=O | Dipeptidyl peptidase 8 (Homo sapiens, UniProt Q6V1X1) | enzyme activity, inhibitor | – | 5 µM | – | activity vs control | > 90% |
| Nc1ncc(-c2cc(-c3cnn(CC(F)(F)F)c3)ncc2F)nc1C(=O)NC1CNCC(F)C1 (stereo not shown) | MAP3K4 | KINOMEscan | – | 1 µM | reference: DMSO control | remaining binding | 77% |
| CCCCCCCCCCCCC/C=C/C=O | REEP5 (Homo sapiens, UniProt Q00765) | competitive isoTOP-ABPP | proteome, soluble, MDA-MB-231 | 100 µM, 60 min, with: iodoacetamide probe | reference: DMSO over compound-treated, higher = stronger cysteine blockade | isoTOP-ABPP competition ratio | 1.2 |
| CC(=O)N1c2ccc(-c3ccc(CNC(=O)c4cn5cc(-c6cnc(N)nc6)nc(N6CCOCC6)c5n4)cc3)cc2CC[C@@H]1C | Transcription initiation factor TFIID subunit 1-like, BD2 (TAF1L, Homo sapiens, UniProt Q8IZX4) | binding, competition with immobilised ligand | – | 10 µM | – | remaining binding | 2.7% |
| Cc1ncsc1-c1ccc(C(C)NC(=O)C2CC(O)CN2C(=O)C(NC(=O)CCCCCCCCCCN2CCCC(Nc3ncc(Cl)c(Nc4ccccc4S(=O)(=O)C(C)C)n3)C2)C(C)(C)C)cc1 (stereo not shown) | 22Rv1 | RNA-seq, item: USP37 mRNA | – | concentration not given | reference: DMSO | log2 fold change | -1.1 |
| C#CCOC(=O)[C@]1(C)C=C(C(=O)OC(C)(C)C)C(=O)CC1 | Mitogen-activated protein kinase 1 (MAPK1, Homo sapiens, UniProt P28482) | enzyme activity, D-SENSOR | – | 14.81 µM, single replicate | – | normalized kinase activity | 0.64 and 0.561 and 0.789 |
| COc1ccccc1-c1ccncc1C(=O)Nc1nnc(OCc2ccc(Cl)cc2)s1 | DNA polymerase theta, helicase domain (POLQ, Homo sapiens, UniProt O75417) | ATPase activity, ADP-Glo | – | 0.24 µM, with: ATP 600 µM | – | remaining activity | 29% |
| CNC(=O)C[C@H](Cc1ccc(C#N)cc1)NC(=O)c1cc(-c2ccc(CN[C@H](C)c3ccc(C)cc3)o2)ccc1Cl | Serine-protein kinase ATM (ATM, Homo sapiens, UniProt Q13315) | enzyme activity, inhibitor | – | 1 µM | – | activity vs control | 123% |
| COC1CN([C@H]2CC[C@H]([C@@]3(C)Oc4c(Cl)cc(C(=O)NCc5c(SC)cc(C)[nH]c5=O)c(C)c4O3)CC2)C1 | – | RNA-seq, item: CREG2 mouse homolog | mouse, HT-1376 xenograft, whole blood | dose not given | reference: vehicle | log2 fold change | 1.27 |
| COC(=O)[C@@]1(C)C=C(C(=O)Nc2cccc(C(=O)Nc3ccc(Nc4nccc(-c5cccnc5)n4)c(C)c3)c2)C(=O)CC1 | MAPK8 | enzyme activity, inhibitor | – | 4.938 µM, 6 h, unit not given, with: GSH 10 mM pre-incubation | reference: vehicle | remaining activity | 0.0364 |
| COC(=O)[C@]1(Cc2ccccc2)C=C(C(=O)OC(C)(C)C)C(=O)CC1 | MAPK8 | D-peptide binding, inhibitor, FP peptide displacement | – | 31.25 µM | lower is stronger displacement | fraction bound | 0.0328 |
| C=CC(=O)Nc1cccc(Cn2ncc3cnc(Nc4cnn(CCOC)c4)nc32)c1 | GRK2 human | binding, KINOMEscan | – | 100 nM | lower = stronger binding | percent of control | 100% |
| Cn1cc(-c2cc(N3CCCCS3(=O)=O)ccc2N[C@H]2CC[C@H](C)CC2)c2cc[nH]c2c1=O (stereo in doubt) | Bromodomain testis-specific protein, BD1 (BRDT, Homo sapiens, UniProt Q58F21) | binding, competition with immobilised ligand | – | 1 µM | – | remaining binding | 18% |
| CN(C)C/C=C/C(=O)Nc1ccc2nc(NCCCCCN(C)C)nc(NCCCCCCN(C)C)c2c1 | Histone-lysine N-methyltransferase EZH2 (EZH2, Homo sapiens, UniProt Q15910) | enzyme activity, inhibitor, radiometric | – | 50 µM | – | inhibition | 84% |
| N=C(N)NCCC[C@@H]1NC(=O)[C@H](Cc2ccccc2)NC(=O)CSC[C@@H](C(=O)N[C@@H](CC(=O)O)C(N)=O)NC(=O)[C@H](CCCNC(=N)N)NC(=O)[C@H](Cc2c[nH]c3ccccc23)NC(=O)[C@H](Cc2ccc(O)cc2)NC(=O)[C@H](Cc2ccc(O)cc2)NC(=O)[C@H](Cc2ccccc2)NC1=O | Stimulator of interferon genes protein (STING1, Homo sapiens, UniProt Q86WV6, H232R) | thermal stability, DSF | – | 100 µM | – | ΔTm | 8.56 °C |
| C[C@@H]1C[C@H](Nc2ccccc2)c2cc(F)ccc2N1C(=O)c1ccc(C(F)(F)F)cc1 | Ecdysone receptor (Aedes albopictus, UniProt Q9U3Y4) | ligand binding, inhibitor | intact cells | with: [3H]ponasterone A | direction not given | pIC50 Z-score | 0.03 |
| C=CC(=O)N1CCCC(n2c(=O)c3ncccc3n(Cc3ccc(Oc4ccccc4)cc3)c2=O)C1 (stereo not shown) | NudC domain-containing protein 2 (NUDCD2, Homo sapiens, UniProt Q8WVJ2) | thermal proteome profiling, item: NUDCD2 | – | unit not given | reference: vehicle | melting temperature shift | -7.12 |
| Cc1nn(-c2cccc(N)c2)c(=O)c2cnc(Nc3ccc(N4CCNCC4)cc3)nc12 | MAPK8 | kinase activity, inhibitor, SelectScreen kinase profiling | – | – | – | IC50 | > 10 µM |
| CC(/C=C/C(=O)NO)=C\[C@@H](C)C(=O)c1ccc(N(C)C)cc1 | Histone deacetylase 8 (HDAC8, Homo sapiens, UniProt Q9BY41) | ITC | phosphate buffer | pH 7.5 | – | TΔS | 7 kcal/mol |

Some of these lines once more:
| Structure (SMILES) | target or system | test | system | setting | how to read | quantity | result |
| --- | --- | --- | --- | --- | --- | --- | --- |
| Cc1nn(-c2cccc(N)c2)c(=O)c2cnc(Nc3ccc(N4CCNCC4)cc3)nc12 | MAPK8 | kinase activity, inhibitor, SelectScreen kinase profiling | – | – | – | IC50 | > 10 µM |
| Nc1ncc(-c2cc(-c3cnn(CC(F)(F)F)c3)ncc2F)nc1C(=O)NC1CNCC(F)C1 (stereo not shown) | MAP3K4 | KINOMEscan | – | 1 µM | reference: DMSO control | remaining binding | 77% |
| Cc1ncsc1-c1ccc(C(C)NC(=O)C2CC(O)CN2C(=O)C(NC(=O)CCCCCCCCCCN2CCCC(Nc3ncc(Cl)c(Nc4ccccc4S(=O)(=O)C(C)C)n3)C2)C(C)(C)C)cc1 (stereo not shown) | 22Rv1 | RNA-seq, item: USP37 mRNA | – | concentration not given | reference: DMSO | log2 fold change | -1.1 |
